{"data": "Measured values from different studies", "note": "Lines come from different studies, so protocols differ. Values joined by “and” are separate records of one study, mostly repeats; a detail may differ. ± marks the error that the study gave."}
{"Compound": "Cc1c(C(=O)O)ccc2c3n(nc12)[C@@H]1[C@H](C3)N(CC2CC2)[C@@]2(C(=O)Nc3cc(Cl)ccc32)[C@H]1c1cccc(Cl)c1F", "cell line": "RKO", "assay": "cell growth, alamarBlue", "conditions": "unbound", "quantity": "GI50", "value": "1.94 nM"}
{"Compound": "COc1cnc2cccc(N3CCc4c(cc(Cn5ccnc5C)cc4-c4cn(C)nc4C(F)(F)F)C3=O)c2c1", "cell line": "SCC-9", "assay": "cell growth, inhibitor", "conditions": "120 h", "quantity": "EC50", "value": "114 nM"}
{"Compound": "Cc1ccc(-c2cc3ccccc3c(N)n2)cc1", "cell line": "Jurkat", "assay": "annexin V-FITC/PI flow cytometry, refers to: annexin V+ PI-", "conditions": "5.0 µM, 72 h", "quantity": "early apoptotic cells", "value": "13.6%"}
{"Compound": "Cc1cccc(-c2[nH]c(CNc3ccccc3F)nc2-c2ccc3ncnn3c2)n1", "cell line": "bone marrow CD138+ myeloma cells", "assay": "XTT", "system": "human", "conditions": "2 µM", "scale": "relative to: untreated", "quantity": "relative viability", "value": 0.075}
{"Compound": "COc1cc(N2CCC(N3CCN(C)CC3)CC2)ccc1Nc1ncc(Cl)c(Nc2ccccc2P(C)(C)=O)n1", "cell line": "NCI-H3122 (EML4-ALK variant 1)", "assay": "cell viability", "quantity": "Emax", "value": "75.1%"}
{"Compound": "Cn1cc(Nc2nccc(-c3ccc4c(c3)CN(C3COC3)CC[C@H]4NC(=O)c3cn(C(C)(C)C)nn3)n2)cn1", "cell line": "mouse splenic B cells", "assay": "refers to: iNOS signalling", "conditions": "30 mg/kg, IgD-activated in vivo", "scale": "relative to: vehicle, direction not given", "quantity": "pathway activation z-score", "value": 1}
{"Compound": "N[C@@H](C(=O)N[C@@H]1C(=O)N2C(C(=O)O)=C(Cl)CS[C@H]12)c1ccccc1", "cell line": "primary rat hippocampal/cortical neuron-glia cultures", "conditions": "1 µM, together with: 1 µM α-synuclein oligomers", "quantity": "reversal of trafficking deficit", "value": "17.9%"}
{"Compound": "CC/C(=N\\NC(=O)NCc1cccc(O)c1)c1ccc(O)c(C)c1O", "cell line": "SK-OV-3", "assay": "Western blot", "conditions": "10 µM, 1 h, 2D culture, unit not given", "scale": "relative to: DMSO", "quantity": "LATS band intensity", "value": "0.26 ± 0.25"}
{"Compound": "CCc1c2c(nc3ccc(O)cc13)-c1cc3c(c(=O)n1C2)COC(=O)[C@]3(O)CC", "cell line": "HD-MB03", "assay": "cell growth", "conditions": "DMSO", "quantity": "IC50", "value": "0.979 nM"}
{"Compound": "Cc1nn(-c2nc3ccc(Cl)c(Cl)c3[nH]2)c(O)c1C1OC(=O)c2ccccc21 (stereo not drawn)", "cell line": "RAW-ISG", "assay": "IFN luciferase reporter", "conditions": "10 µM, together with: HT-DNA", "quantity": "inhibition", "value": "85.9% and 85.6% and 86% and 85.7% and 86.3%"}
{"Compound": "Cc1nc(Nc2ncc(C(=O)Nc3c(C)cccc3Cl)s2)cc(N2CCN(CCO)CC2)n1", "cell line": "HD-MB03", "assay": "cell growth", "conditions": "168 h, DMSO", "quantity": "IC50", "value": "2790 nM"}
{"Compound": "CC(=O)c1c(O)c(C)c(O)c2c1OC1=CC(=O)C(C(C)=O)C(=O)C12C (single isomer, unassigned; (+))", "cell line": "hepatocytes, iPSC-derived, W2 line", "assay": "cell viability", "conditions": "24 h", "quantity": "IC50", "value": "26000 nM"}
{"Compound": "O=C(/C=C/C=C/C=C/C1CCCCC1)NC1=C[C@@](O)(/C=C/C=C/C=C/C(=O)NC2=C(O)CCC2=O)[C@@H]2O[C@@H]2C1=O", "cell line": "BXPC-3", "assay": "cell growth, CellTiter-Glo", "conditions": "78 h", "quantity": "GI50", "value": "20100 nM"}
{"Compound": "Cc1cnc(NC2CCOCC2)nc1-n1cnc(C(=O)NC(CN)c2cc(F)cc(Cl)c2)c1 (stereo not drawn)", "cell line": "A-375", "assay": "flow cytometry", "conditions": "1 µM, 48 h", "quantity": "sub-G0 cells", "value": "0%"}
{"Compound": "Cc1noc2c1-c1ccccc1C(c1ccc(Cl)cc1)=N[C@H]2CC(N)=O", "cell line": "HD-MB03", "assay": "cell growth", "conditions": "168 h, DMSO", "quantity": "IC50", "value": "806 nM"}
{"Compound": "Cn1cc(-c2ccc(-c3cncc(Cl)c3N3CCC4(CCNC4=O)CC3)cc2)cn1", "cell line": "COLO 205", "assay": "gene expression, microarray, refers to: DRAM1 mRNA", "conditions": "concentration not given, 6 h", "scale": "relative to: untreated cells", "quantity": "log2 fold change", "value": 3.04}
{"Compound": "Clc1nc(NCc2ccco2)c2[nH]cnc2n1", "cell line": "iPSC-derived cardiomyocytes", "assay": "RNA-seq, refers to: ADGRD1 chr12 exon ending 130991078", "conditions": "unit not given", "scale": "relative to: DMSO minus compound", "quantity": "ΔPSI", "value": -0.289}
{"Compound": "C=Cc1c2[n-]c(c1C)/C=c1\\[n-]/c(c(C)c1C=C)=C\\c1[n-]c(c(CCC(=O)O)c1C)/C=c1\\[n-]c(c(C)c1CCC(=O)O)=C2.[Sn+4]", "cell line": "SH-SY5Y", "assay": "RNA-seq, refers to: PLAT mRNA", "conditions": "5 µM, 5 h", "scale": "relative to: untreated cells", "quantity": "fold change", "value": 2.23}
{"Compound": "CC(C)(c1ccc(O)cc1)c1ccc(O)cc1", "cell line": "HepG2 spheroids", "assay": "Hoechst flow cytometry", "conditions": "1 µM, 24 h", "quantity": "S phase cells", "value": "7.93 ± 1.55%"}
{"Compound": "CCn1cc(-c2cc(Cn3ccnc3)cc3c2CCN([C@H](c2cc(OC)ccn2)C2CC2)C3=O)c(C(F)(F)F)n1", "cell line": "SW 1116", "assay": "cell growth, inhibitor", "conditions": "120 h", "quantity": "EC50", "value": "13900 nM"}
{"Compound": "O=C(O)c1ccc2c(c1)nc(Nc1cccc(Cl)c1)c1ccncc12", "cell line": "HD-MB03", "conditions": "concentration not given, together with: ribociclib NG", "scale": "relative to: ribociclib over DMSO", "quantity": "fold change in IC50", "value": 0.709}
{"note": "For quick reference, copied from above:"}
{"Compound": "Cc1ccc(-c2cc3ccccc3c(N)n2)cc1", "cell line": "Jurkat", "assay": "annexin V-FITC/PI flow cytometry, refers to: annexin V+ PI-", "conditions": "5.0 µM, 72 h", "quantity": "early apoptotic cells", "value": "13.6%"}
{"Compound": "Cc1cccc(-c2[nH]c(CNc3ccccc3F)nc2-c2ccc3ncnn3c2)n1", "cell line": "bone marrow CD138+ myeloma cells", "assay": "XTT", "system": "human", "conditions": "2 µM", "scale": "relative to: untreated", "quantity": "relative viability", "value": 0.075}
{"Compound": "Cc1cnc(NC2CCOCC2)nc1-n1cnc(C(=O)NC(CN)c2cc(F)cc(Cl)c2)c1 (stereo not drawn)", "cell line": "A-375", "assay": "flow cytometry", "conditions": "1 µM, 48 h", "quantity": "sub-G0 cells", "value": "0%"}
